Assay results from different studies.
Each numbered part is a random draw from the data of one study; scales do not carry over between parts. Several values in a cell are separate wells, animals, samples, runs or records.
UniProt Q9UL54, sequence (whole entry, looked up): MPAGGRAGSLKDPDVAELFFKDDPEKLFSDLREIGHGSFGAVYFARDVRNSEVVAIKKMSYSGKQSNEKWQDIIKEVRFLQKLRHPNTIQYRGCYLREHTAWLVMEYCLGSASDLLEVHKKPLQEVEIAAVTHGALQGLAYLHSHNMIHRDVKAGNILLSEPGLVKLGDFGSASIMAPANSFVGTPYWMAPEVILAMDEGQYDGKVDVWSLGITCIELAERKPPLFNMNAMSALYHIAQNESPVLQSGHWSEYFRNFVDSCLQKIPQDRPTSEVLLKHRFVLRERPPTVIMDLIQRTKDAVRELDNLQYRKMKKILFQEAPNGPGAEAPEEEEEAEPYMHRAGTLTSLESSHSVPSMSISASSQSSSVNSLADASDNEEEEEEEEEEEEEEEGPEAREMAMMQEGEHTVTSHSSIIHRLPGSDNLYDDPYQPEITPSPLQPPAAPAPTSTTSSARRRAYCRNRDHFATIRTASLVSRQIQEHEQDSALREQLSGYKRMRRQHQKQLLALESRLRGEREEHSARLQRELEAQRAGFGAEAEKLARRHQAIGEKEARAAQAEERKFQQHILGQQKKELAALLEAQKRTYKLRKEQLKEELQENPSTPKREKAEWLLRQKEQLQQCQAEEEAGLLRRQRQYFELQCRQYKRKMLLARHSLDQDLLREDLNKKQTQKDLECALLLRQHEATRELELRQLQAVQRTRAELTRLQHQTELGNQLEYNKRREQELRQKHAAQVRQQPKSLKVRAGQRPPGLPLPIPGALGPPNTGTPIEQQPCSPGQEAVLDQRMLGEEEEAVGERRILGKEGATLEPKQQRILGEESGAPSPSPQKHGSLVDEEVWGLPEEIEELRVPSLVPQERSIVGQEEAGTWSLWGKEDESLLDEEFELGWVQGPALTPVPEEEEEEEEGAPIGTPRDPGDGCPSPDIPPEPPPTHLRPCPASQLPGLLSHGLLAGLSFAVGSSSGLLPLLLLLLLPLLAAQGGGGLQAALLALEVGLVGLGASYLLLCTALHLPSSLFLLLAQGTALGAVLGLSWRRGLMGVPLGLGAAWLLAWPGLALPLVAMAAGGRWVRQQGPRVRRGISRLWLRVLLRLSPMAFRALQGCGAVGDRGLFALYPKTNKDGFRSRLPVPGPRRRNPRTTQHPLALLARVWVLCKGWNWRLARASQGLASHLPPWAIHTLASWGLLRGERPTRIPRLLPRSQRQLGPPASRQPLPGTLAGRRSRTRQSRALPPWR
UniProt Q9H4A3, sequence (whole entry, looked up): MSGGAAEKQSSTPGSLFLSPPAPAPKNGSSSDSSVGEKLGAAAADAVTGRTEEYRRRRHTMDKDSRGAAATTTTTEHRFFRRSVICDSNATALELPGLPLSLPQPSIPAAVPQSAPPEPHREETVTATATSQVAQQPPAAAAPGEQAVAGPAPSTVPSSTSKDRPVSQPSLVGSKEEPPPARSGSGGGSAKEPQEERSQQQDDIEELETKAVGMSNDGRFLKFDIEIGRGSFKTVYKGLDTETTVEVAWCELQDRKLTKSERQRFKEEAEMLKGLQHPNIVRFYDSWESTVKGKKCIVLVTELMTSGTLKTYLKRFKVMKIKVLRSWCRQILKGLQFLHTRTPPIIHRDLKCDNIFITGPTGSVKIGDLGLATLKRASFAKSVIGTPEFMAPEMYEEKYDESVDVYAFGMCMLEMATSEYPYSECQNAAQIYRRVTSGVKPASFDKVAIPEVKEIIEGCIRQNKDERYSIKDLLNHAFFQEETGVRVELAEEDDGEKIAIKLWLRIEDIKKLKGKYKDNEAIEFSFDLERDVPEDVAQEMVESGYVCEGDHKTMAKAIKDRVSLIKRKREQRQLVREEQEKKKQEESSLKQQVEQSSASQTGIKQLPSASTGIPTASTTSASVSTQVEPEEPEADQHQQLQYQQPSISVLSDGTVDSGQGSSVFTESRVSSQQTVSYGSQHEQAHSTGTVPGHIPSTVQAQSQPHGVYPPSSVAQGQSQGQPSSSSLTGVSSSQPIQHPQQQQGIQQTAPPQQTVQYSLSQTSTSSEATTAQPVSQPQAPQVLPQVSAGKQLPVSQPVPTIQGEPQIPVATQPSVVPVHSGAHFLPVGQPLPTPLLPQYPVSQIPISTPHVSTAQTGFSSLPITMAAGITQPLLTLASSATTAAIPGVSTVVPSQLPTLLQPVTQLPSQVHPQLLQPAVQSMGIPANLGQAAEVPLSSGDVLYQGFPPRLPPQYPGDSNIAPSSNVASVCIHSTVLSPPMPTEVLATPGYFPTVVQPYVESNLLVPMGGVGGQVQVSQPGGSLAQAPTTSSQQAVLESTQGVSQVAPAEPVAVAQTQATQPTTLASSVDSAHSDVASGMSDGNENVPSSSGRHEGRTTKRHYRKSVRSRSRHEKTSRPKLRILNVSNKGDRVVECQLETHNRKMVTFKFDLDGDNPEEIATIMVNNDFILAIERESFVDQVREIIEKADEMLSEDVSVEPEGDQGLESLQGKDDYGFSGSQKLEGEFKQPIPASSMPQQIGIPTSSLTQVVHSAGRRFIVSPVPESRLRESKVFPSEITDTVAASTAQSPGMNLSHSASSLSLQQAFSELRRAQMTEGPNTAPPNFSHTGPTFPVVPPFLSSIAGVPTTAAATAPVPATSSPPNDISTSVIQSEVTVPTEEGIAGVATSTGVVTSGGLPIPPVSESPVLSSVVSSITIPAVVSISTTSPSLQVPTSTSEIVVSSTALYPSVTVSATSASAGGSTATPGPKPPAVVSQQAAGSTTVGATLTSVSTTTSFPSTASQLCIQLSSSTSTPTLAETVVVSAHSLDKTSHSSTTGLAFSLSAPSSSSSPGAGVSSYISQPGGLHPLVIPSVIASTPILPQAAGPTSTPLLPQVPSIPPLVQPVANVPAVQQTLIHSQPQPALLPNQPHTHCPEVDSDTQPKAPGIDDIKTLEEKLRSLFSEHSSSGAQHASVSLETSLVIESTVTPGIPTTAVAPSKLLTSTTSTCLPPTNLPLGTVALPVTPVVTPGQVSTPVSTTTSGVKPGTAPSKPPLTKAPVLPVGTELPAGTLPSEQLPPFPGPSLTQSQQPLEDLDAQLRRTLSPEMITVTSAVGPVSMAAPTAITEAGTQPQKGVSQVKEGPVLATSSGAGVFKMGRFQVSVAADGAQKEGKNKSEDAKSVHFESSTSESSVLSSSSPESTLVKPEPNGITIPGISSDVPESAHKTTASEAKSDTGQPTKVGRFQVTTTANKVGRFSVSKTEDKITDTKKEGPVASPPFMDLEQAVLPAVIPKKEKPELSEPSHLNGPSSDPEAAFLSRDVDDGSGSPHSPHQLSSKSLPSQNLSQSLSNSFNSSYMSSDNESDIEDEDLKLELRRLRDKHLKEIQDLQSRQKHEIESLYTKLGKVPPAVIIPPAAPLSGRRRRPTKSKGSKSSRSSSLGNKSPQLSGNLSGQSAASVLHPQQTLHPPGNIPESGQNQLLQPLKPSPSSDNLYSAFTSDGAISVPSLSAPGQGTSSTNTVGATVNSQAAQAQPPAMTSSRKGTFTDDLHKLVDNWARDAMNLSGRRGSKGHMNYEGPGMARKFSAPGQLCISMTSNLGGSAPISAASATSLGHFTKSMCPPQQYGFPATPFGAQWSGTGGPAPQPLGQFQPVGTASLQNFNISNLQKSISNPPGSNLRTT
UniProt Q00526, sequence (whole entry, looked up): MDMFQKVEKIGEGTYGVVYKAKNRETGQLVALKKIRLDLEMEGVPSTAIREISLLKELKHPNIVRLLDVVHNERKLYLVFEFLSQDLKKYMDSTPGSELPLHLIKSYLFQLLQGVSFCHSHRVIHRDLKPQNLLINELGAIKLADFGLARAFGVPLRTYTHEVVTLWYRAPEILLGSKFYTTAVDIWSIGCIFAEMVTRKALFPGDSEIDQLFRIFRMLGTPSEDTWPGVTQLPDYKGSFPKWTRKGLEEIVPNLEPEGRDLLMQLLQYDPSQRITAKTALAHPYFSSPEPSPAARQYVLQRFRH

Study 1 — species: C57BL/6 CES1-/- mice, EL4 tumour; route: subcutaneous; dose: 0.3 mg/kg/day DON equivalent; time: 5 days; direction: higher = more metabolite
Structure (SMILES): CC(=O)N[C@@H](Cc1c[nH]c2ccccc12)C(=O)N[C@@H](CCC(=O)C=[N+]=[N-])C(=O)OC(C)C
| method | refers to | cells | matrix | setting | metabolite peak intensity |
| --- | --- | --- | --- | --- | --- |
| UPLC-MS/MS | indolelactate | EL4 | tumour | normalised to tissue mass | 664000 a.u. and 329000 a.u. and 692000 a.u. and 372000 a.u. and 487000 a.u. |
| LC-MS/MS metabolomics | pipecolate |  | EL4 tumour |  | 1.57e+08 a.u. and 1.25e+08 a.u. and 8.42e+07 a.u. and 1.12e+08 a.u. and 3.63e+07 a.u. and 5.66e+07 a.u. |
| LC-MS/MS metabolomics | 2,6-dihydroxybenzoic acid |  | EL4 tumour | normalised to tissue mass | 128000 a.u. and 326000 a.u. and 144000 a.u. and 76000 a.u. and 269000 a.u. and 114000 a.u. |
| LC-MS/MS metabolomics | 3-hydroxykynurenine |  | EL4 tumour | normalised to tissue mass | 186000 a.u. and 143000 a.u. and 563000 a.u. and 353000 a.u. |

Study 2 — organism: Sarcocystis neurona; effect on: parasite growth; tested at: 10 µM; time: 96 h; baseline: untreated
| Structure (SMILES) | log2 fold change |
| --- | --- |
| c1ccc(-c2ccc(C(c3ccccc3)n3ccnc3)cc2)cc1 (stereo not drawn) | -1.15 |
| Clc1ccccc1C(c1ccccc1)(c1ccccc1)n1ccnc1 | -1.12 |
| COC(=O)C[C@](O)(CCCC(C)(C)O)C(=O)O[C@@H]1C(OC)=C[C@]23CCCN2CCc2cc4c(cc2[C@H]13)OCO4 | -7.88 |
| CC(C)(C)NCC(O)c1cc(O)cc(O)c1 (stereo not drawn) | 0.51 |
| COc1ccc([C@@H]2Sc3ccccc3N(CCN(C)C)C(=O)[C@@H]2OC(C)=O)cc1 | -0.0333 |
| COc1cc(C(=O)NC2CCCNC2)cc(OC)c1OC (stereo not drawn) | 0.39 |
| C/C=C1\[C@H]2C=C(C)C[C@]1(N)c1ccc(=O)[nH]c1C2 | 0.29 |
| OC(c1cc(C(F)(F)F)nc2c(C(F)(F)F)cccc12)C1CCCCN1 (stereo not drawn) | -0.23 |

Study 3 — effect on: enzyme activity; mode: inhibitor; tested at: 0.5 µM; baseline: control
Target: Ephrin type-B receptor 3 (EPHB3, Homo sapiens, UniProt P54753)
UniProt P54753, sequence (whole entry, looked up): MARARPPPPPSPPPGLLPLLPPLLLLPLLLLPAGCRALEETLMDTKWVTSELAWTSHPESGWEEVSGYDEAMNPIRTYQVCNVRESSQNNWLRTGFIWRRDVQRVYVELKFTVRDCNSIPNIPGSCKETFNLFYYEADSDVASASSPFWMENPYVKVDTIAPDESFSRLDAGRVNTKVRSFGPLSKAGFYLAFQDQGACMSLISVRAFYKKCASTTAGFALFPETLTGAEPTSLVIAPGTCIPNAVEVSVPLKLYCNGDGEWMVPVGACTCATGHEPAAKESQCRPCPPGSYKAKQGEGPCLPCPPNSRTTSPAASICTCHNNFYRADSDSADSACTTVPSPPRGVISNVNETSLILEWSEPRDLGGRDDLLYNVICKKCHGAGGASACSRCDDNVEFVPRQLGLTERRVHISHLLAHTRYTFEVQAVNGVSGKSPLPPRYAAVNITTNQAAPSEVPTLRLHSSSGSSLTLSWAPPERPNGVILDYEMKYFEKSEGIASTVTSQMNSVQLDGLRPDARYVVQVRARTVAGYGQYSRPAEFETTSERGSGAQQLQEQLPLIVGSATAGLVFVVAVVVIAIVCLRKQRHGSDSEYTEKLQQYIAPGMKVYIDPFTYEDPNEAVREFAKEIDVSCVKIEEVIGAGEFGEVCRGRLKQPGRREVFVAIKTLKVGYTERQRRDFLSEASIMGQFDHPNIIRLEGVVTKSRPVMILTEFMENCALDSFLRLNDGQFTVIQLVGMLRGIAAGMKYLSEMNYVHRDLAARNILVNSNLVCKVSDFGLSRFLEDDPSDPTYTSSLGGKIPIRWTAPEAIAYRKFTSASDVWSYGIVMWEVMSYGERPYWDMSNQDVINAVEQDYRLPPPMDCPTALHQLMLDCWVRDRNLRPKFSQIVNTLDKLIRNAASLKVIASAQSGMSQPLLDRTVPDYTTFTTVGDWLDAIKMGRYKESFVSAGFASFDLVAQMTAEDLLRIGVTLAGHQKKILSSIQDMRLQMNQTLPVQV
| SMILES | remaining activity |
| --- | --- |
| O=C1NC(=O)/C(=C/c2ccc3c(c2)OC(F)(F)O3)S1 | 93.1% |
| CC(C)(C)c1nc2c3cc[nH]c(=O)c3c3cc(F)ccc3c2[nH]1 | 87.1% |
| N#C/C(=C(/N)SC1C=CC=CC1)c1cccc(C(O)c2ccncc2)c1 (stereo not drawn) | 95.4% |
| COc1cc2c(N3CCN(C(=O)Nc4ccc(OC(C)C)cc4)CC3)ncnc2cc1OCCCN1CCCCC1 | 84.2% |
| O=C1c2ccccc2-c2nc3nnnn3nc21 | 90.2% |
| N#CC(c1ccnc(NCCc2cccnc2)n1)c1nc2ccccc2s1 (stereo not drawn) | 91% |
| O=c1c(-c2ccc(F)cc2)c(-c2ccncc2)[nH]n1-c1ccc(Cl)cc1 | 92.2% |
| NC(=O)c1ccc(-c2nc(-c3ccc4c(c3)OCCO4)c(-c3ccccn3)[nH]2)cc1 | 91.8% |
| C[C@@H](N)[C@H]1CC[C@H](C(=O)Nc2ccncc2)CC1 | 95.9% |
| c1cc(-c2cnn3cc(-c4ccc(OCCN5CCCCC5)cc4)cnc23)ccn1 | 97% |
| CC(C)n1cnc2c(Nc3cccc(Cl)c3)nc(NCCO)nc21 | 119% |
| CCN(CC)CCCCN1c2ccccc2Oc2ccc(Cl)cc21 | 112% |
| CC(C)N(CCC(=O)c1ccc2ccccc2c1)Cc1ccccc1 | 88.5% |

Study 4 — effect on: cell-free assay; method: competition with immobilised ligand; tested at: 1 µM
Compound: COc1ccc2c(c1)O[C@@H](c1ccc(OC)c(OC)c1)C[C@H]2NC(=O)C1(c2ccc3c(c2)OC(F)(F)O3)CC1
| target | remaining binding |
| --- | --- |
| Tyrosine-protein kinase ABL1, phosphorylated (ABL1, Homo sapiens, UniProt P00519, Y253F) | 78% |
| Cyclin-dependent kinase-like 5 (CDKL5, Homo sapiens, UniProt O76039) | 85% |
| SRSF protein kinase 2 (SRPK2, Homo sapiens, UniProt P78362) | 91% |
| Peripheral plasma membrane protein CASK (CASK, Homo sapiens, UniProt O14936) | 100% |
| Serine/threonine-protein kinase WNK1 (WNK1, Homo sapiens, UniProt Q9H4A3) | 100% |
| Hepatocyte growth factor receptor (MET, Homo sapiens, UniProt P08581, M1250T) | 95% |
| Serine/threonine-protein kinase TAO2 (TAOK2, Homo sapiens, UniProt Q9UL54) | 83% |
| Cyclin-dependent kinase 3 (CDK3, Homo sapiens, UniProt Q00526) | 100% |

A few entries again (study 1):
| method | refers to | cells | matrix | setting | metabolite peak intensity |
| --- | --- | --- | --- | --- | --- |
| LC-MS/MS metabolomics | 2,6-dihydroxybenzoic acid |  | EL4 tumour | normalised to tissue mass | 128000 a.u. and 326000 a.u. and 144000 a.u. and 76000 a.u. and 269000 a.u. and 114000 a.u. |
| LC-MS/MS metabolomics | 3-hydroxykynurenine |  | EL4 tumour | normalised to tissue mass | 186000 a.u. and 143000 a.u. and 563000 a.u. and 353000 a.u. |
